Measurements collected from several papers.
A part holds a random share of what one study measured. Substitutions count along the parent as printed.

Block 1
Target: CCNF, cyclin fold, Cln2 fusion (human)
Method: yeast growth competition, sequencing
Medium: yeast
Notes: weak parent motif
Baseline: not given
Direction: higher = stronger binding
Quantity: normalised enrichment score
Parent: PKN2 docking peptide (human); VSAVQKLDFSDTM; partner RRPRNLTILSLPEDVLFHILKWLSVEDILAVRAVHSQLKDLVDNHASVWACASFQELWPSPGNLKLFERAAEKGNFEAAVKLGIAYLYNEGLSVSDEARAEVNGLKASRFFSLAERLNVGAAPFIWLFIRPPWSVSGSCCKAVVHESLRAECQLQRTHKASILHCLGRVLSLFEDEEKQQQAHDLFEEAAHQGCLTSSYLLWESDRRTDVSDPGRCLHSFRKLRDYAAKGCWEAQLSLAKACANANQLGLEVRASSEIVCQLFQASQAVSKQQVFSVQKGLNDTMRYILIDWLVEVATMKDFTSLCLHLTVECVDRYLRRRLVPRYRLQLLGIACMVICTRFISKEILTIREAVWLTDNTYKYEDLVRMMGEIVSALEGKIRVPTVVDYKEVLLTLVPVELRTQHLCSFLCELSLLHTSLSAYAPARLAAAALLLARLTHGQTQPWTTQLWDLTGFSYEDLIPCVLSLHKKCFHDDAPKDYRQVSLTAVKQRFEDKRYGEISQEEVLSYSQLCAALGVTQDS
Substitution = K6Q; value = 0.193
Substitution = S2T; value = 0.64
Substitution = M13F; value = 1.4
Substitution = V4F; value = -0.614
Substitution = S10F; value = 0.109
Substitution = A3P; value = 0.259
Substitution = A3Q; value = -0.53
Substitution = Q5R; value = 7.19
Substitution = A3S; value = -0.73
Substitution = D8Q; value = 1.49
Substitution = K6A; value = -0.541
Substitution = L7T; value = -0.845
Substitution = K6H; value = 0.302
Substitution = A3E; value = -0.668
Substitution = T12P; value = 2.18

Block 2
Target: ABI1, truncated, D143A, DHFR fusion (Arabidopsis thaliana)
Method: DHFR PCA, deep sequencing
Medium: yeast
Notes: methotrexate growth selection, single substitutions
Together with: (+)-ABA 710 µM
Baseline: wild-type fitted maximum
Direction: higher = stronger binding
Quantity: relative binding score
Parent: PYL1, truncated, DHFR fusion (Arabidopsis thaliana); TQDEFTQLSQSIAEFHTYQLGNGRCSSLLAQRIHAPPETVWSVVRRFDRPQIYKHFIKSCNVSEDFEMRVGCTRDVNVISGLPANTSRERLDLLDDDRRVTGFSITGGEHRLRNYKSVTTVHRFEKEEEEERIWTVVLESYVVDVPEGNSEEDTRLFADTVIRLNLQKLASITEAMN
Substitution = V40L; value = 16.7%
Substitution = W134C; value = 110%
Substitution = G107L; value = 54.9%
Substitution = H122E; value = 89.8%
Substitution = Q31L; value = 73.1%
Substitution = I105G; value = 31.9%
Substitution = T106S; value = 93.1%
Substitution = K54L; value = -15.2%
Substitution = S87Q; value = 28.7%

Block 3
Target: Prothrombin, mature alpha-thrombin (F2, Homo sapiens, UniProt P00734)
Method: aptamer microarray, sandwich
Molecule type: DNA with 2'F-ANA
Medium: in vitro
Concentration: 200 nM
Notes: whole 15-mer aptamer, many near background
Together with: Cy3 exosite-II aptamer, 400 nM
Direction: higher = stronger binding
Quantity: mean fluorescence intensity
Oligonucleotide: GGTTGGTGTGGTTGG
Modification = 2'F-ANA at 5 7 8 10 12 14 15; value = 44.6 a.u.
Modification = 2'F-ANA at 6 7 8 12 13 14; value = 220 a.u.
Modification = 2'F-ANA at 1 2 4 7 9 11; value = 105 a.u.
Modification = 2'F-ANA at 2 3 4 5 6 8 9 12 13; value = 114 a.u.
Modification = 2'F-ANA at 4 5 6 8 9 10 12 13; value = 47.6 a.u.
Modification = 2'F-ANA at 3 4 6 8 9 11 12 15; value = 695 a.u.
Modification = 2'F-ANA at 2 8 9 10 11 13 15; value = 102 a.u.
Modification = 2'F-ANA at 1 2 4 5 8 10 13 14; value = 55.6 a.u.
Modification = 2'F-ANA at 1 2 3 4 5 6 10 11 14 15; value = 51 a.u.
Modification = 2'F-ANA at 3 5 7 8 14 15; value = 99.2 a.u.
Modification = 2'F-ANA at 4 7 11 14 15; value = 136 a.u.
Modification = 2'F-ANA at 4 5 8 9 12 13; value = 94.1 a.u.
Modification = 2'F-ANA at 2 3 5 7 8 9 11 12 14 15; value = 65.1 a.u.
Modification = 2'F-ANA at 1 3 5 6 12 14 15; value = 68.1 a.u.
Modification = 2'F-ANA at 1 2 3 6 7 8 9 10 11 12 15; value = 88.2 a.u.
Modification = 2'F-ANA at 2 3 5 6 7 9 11 12 13 15; value = 99.3 a.u.
Modification = 2'F-ANA at 1 3 4 6 7 9 13; value = 178 a.u.
Modification = 2'F-ANA at 1 3 7 9 13; value = 239 a.u.
Modification = 2'F-ANA at 1 2 3 8 9 10 11 12 14; value = 58.1 a.u.
Modification = 2'F-ANA at 3 4 5 8 10 13 14; value = 45.5 a.u.

Further values, each from its own experiment
Molecule = PhoQ, residues 284 288 289 292 302 303 HSYLQF; target = PhoP, residues 12 14 15 18 19 VGHWL (Escherichia coli, UniProt P23836); assay = Sort-seq, measured: YFP reporter; test system = E. coli; conditions = PhoQ-PhoP variant library, together with: 10 µM Mg2+; scale = baseline: high Mg2+ state, higher = stronger signaling; quantity = fold induction; value = 4.81

Some of these lines once more (block 3):
Modification = 2'F-ANA at 1 2 3 6 7 8 9 10 11 12 15; value = 88.2 a.u.
Modification = 2'F-ANA at 2 3 5 6 7 9 11 12 13 15; value = 99.3 a.u.
Modification = 2'F-ANA at 1 3 4 6 7 9 13; value = 178 a.u.
Modification = 2'F-ANA at 1 3 7 9 13; value = 239 a.u.
Modification = 2'F-ANA at 1 2 3 8 9 10 11 12 14; value = 58.1 a.u.
